Assay results gathered from unrelated publications.
“And” joins repeats or separate records; there may be more than shown. ± marks the error that the study gave.
Cell line: MCF7

With `Oc1cccc(-c2cccc(O)n2)n1.[Cl-].[Cl-].[Ru+2].c1ccc(-c2ccnc3c2ccc2c(-c4ccccc4)ccnc23)cc1.c1ccc(-c2ccnc3c2ccc2c(-c4ccccc4)ccnc23)cc1` the EC50 was 2000 nM (CCK-8 viability; white light 2 h).
`CC(=O)[O][Pd][c]1cc(C)ccc1N1N=C(C)C(C)(C)C1=O.CC(=O)[O][Pd][c]1cc(C)ccc1N1N=C(C)C(C)(C)C1=O` — result for “cells with decreased ΔΨm”: 52.2 ± 5.01% (JC-1 flow cytometry; 25 µM, 24 h).
`COC(=O)c1cc(NC2=NC(=O)C(=Cc3ccc(C)cc3)S2)ccc1OC(C)=O` has a metabolite level of 0.01 fold change (GC-MS, measured: L-Valine; 1 µM; relative to: DMSO).
The growth percent of `CN(C)CCN1CCN(c2ccc3nc(-c4ccc5nc(-c6ccc(C(F)(F)F)cc6)[nH]c5c4)[nH]c3c2)CC1` is reported as 9.58% (SRB; 10 µM, 48 h).
For `CSC(=S)N/N=C(\C)c1ccc(S(=O)(=O)N2CCC(C)CC2)cc1`, “early apoptotic cells” read 4.49% (annexin V/PI; concentration not given, 72 h, at IC50).
With `Cc1cc(C)nc(SCC(=O)Nc2ncc(Cc3cccc4ccccc34)s2)n1` the EC50 was 27600 to 44900 nM (cell growth or viability, MTT; 72 h).
`CC(=O)[O][Pd][c]1ccccc1-n1nc(C)cc1C.CC(=O)[O][Pd][c]1ccccc1-n1nc(C)cc1C`: “caspase-8 active cells” 50.3 ± 2.53% (FLICA flow cytometry; 25 µM, 24 h).
The growth inhibition of `CCC(=CCc1c(O)cc2c(c1O)C(=O)CC(c1ccc(O)cc1)O2)CC` (stereo not shown) is reported as 54.3% (cytotoxicity, MTT; 27.14 µM, 48 h).
The viability of `CSC(=S)N/N=C(\C)c1ccc(Nc2nnc(-c3ccc(Cl)cc3)c3ccccc23)cc1` is reported as 9.78% (cell growth or viability, MTT; 1.25 µM, 24 h).
For `Cc1c(COc2cc(OCc3cccc(C#N)c3)c(CNC(CO)(CO)CO)cc2Cl)cccc1-c1cccc(OCCCCCC(=O)NO)c1`, the apoptotic cells was 29.4% (annexin V-FITC/PI flow cytometry; 5 µM, 48 h, early plus late apoptosis).
With `C[C@@H]1CC[C@@H]([C@@](O)(CNCc2cccc(F)c2)COCc2ccccc2)[C@H](OCc2ccccc2)C1` the inhibition was 95.7% (cell growth or viability, MTT; 10 µM, 72 h).
The growth inhibition of `CCC(=CCc1c(O)cc2c(c1O)C(=O)CC(c1ccccc1O)O2)CC` (stereo not shown) is reported as 77.4% (cytotoxicity, MTT; 108.6 µM, 48 h).
The metabolite level of `COC(=O)c1cc(NC2=NC(=O)C(=Cc3ccc(N(C)C)cc3)S2)ccc1OC(C)=O` is reported as -0.13 fold change (GC-MS, measured: Scyllo-Inositol; 1 µM; relative to: DMSO).
`C/C(=N\N=C1/NC(=O)CS1)c1c(O)c2ccccc2oc1=O` has a selectivity index of > 3.8 (cell growth, MTT; relative to: IC50 BJ-1 over MCF7).
Under “cells in G0/G1 phase”, `CSC(=NN=C(C)c1ccc(S(=O)(=O)N2CCC(C)CC2)cc1)N(C)C` is recorded as 41.5% (flow cytometry; 4.29 µM (IC50), 72 h).
The growth inhibition of `CCC(=CCc1c(O)cc2c(c1O)C(=O)CC(c1cccc(O)c1)O2)CC` (stereo not shown) is reported as 11.8% (cytotoxicity, MTT; 1.696 µM, 48 h).
The inhibition of `C[C@@H]1CC[C@@H]([C@@](O)(COCc2ccccc2)Cn2cnc3ccccc32)[C@H](OCc2ccccc2)C1` is reported as 86.4% (cell growth or viability, MTT; 30 µM, 72 h).
The growth inhibition of `C=CCc1c(O)cc2c(c1O)C(=O)CC(c1ccc(O)cc1)O2` (stereo not shown) is reported as -3.81% (cytotoxicity, MTT; 1.601 µM, 48 h).
`Nc1cc2cccnc2c2ncccc12.[Cl-].[Cl-].[Ru+2].c1cnc2c(c1)ccc1cccnc12.c1cnc2c(c1)ccc1cccnc12` gave a selectivity index of 0.7 (MTT; blue light; relative to: IC50 HFF-1 over IC50 MCF7).
`COc1cc(/C=C/C(=O)/C=C(O)/C=C/c2ccc(OCC(=O)N3CCOCCOCCOCCOCC3)c(OC)c2)ccc1OCC(=O)N1CCOCCOCCOCCOCC1` has an inhibition of 89.6% (cell growth or viability, SRB; 25 µM).
`Nc1ncc2c(n1)-c1c([nH]c3ccc(C4=CCOCC4)cc13)CCC2` gave a phospho-p70-S6K level of 60% (Western blot, measured: phospho-p70-S6K Thr389; 5 µM, 48 h; relative to: total p70-S6K).
`COCCCCCNc1nc(NCCCCCCN(C)C)c2cc(NC(=O)/C=C/CN(C)C)ccc2n1` gave a viability of 0.887 and 0.948 and 0.898 (CellTiter-Glo; 50 µM, 24 h, unit not given; relative to: DMSO-treated cells).
The EC50 of `CC[C@H]([C@H](C)c1ccc(O)cc1)[C@@H](CC)c1ccc(O)cc1` is reported as 9.9 nM (cell growth or viability, ATP luminescence; 5 days).
`CC(=NN=c1sc(C(=O)c2ccccc2)nn1-c1ccccc1)c1ccc(S(=O)(=O)N2CCC(C)CC2)cc1`: “early apoptotic cells” 5.86% (annexin V/PI; concentration not given, 72 h, at IC50).
`C1=[N+]2CCCC[N+]3=Cc4ccc5[n]4[Au-]23[n]2c1ccc2-c1nc2ccccc2nc1-5.F[P-](F)(F)(F)(F)F` has a TGI of 4.6 -log M (NCI60 five-dose screen).
`COc1ccc(COC[C@](O)(CNCc2ccccc2)[C@@H]2CC[C@@H](C)C[C@H]2OCc2ccc(OC)cc2)cc1` gave an inhibition of 99% (cell growth or viability, MTT; 30 µM, 72 h).
Under “cells in S phase”, `CC(C)C[C@@H](NC(=O)[C@H](C)NC(=O)CNC(=O)[C@@H](NC=O)C(C)C)C(=O)N[C@@H](C)C(=O)N[C@@H](C(=O)N[C@H](C(=O)N[C@@H](C(=O)N[C@@H](Cc1c[nH]c2ccccc12)C(=O)N[C@H](CC(C)C)C(=O)N[C@@H](Cc1c[nH]c2ccccc12)C(=O)N[C@H](CC(C)C)C(=O)N[C@@H](Cc1c[nH]c2ccccc12)C(=O)N[C@H](CC(C)C)C(=O)N[C@@H](Cc1c[nH]c2ccccc12)C(=O)NCCO)C(C)C)C(C)C)C(C)C` is recorded as 23.1 ± 1.71% (flow cytometry; 20 nM, 48 h).
With `COc1ccc(CNC[C@@](O)(COCc2ccc(F)cc2)[C@@H]2CC[C@@H](C)C[C@H]2OCc2ccc(F)cc2)cc1` the inhibition was 99% (cell growth or viability, MTT; 30 µM, 72 h).
The GI50 of `O=C1CC[C@H](N2Cc3cc(N4CCN(CC5CCN(c6ccc([C@@H]7c8ccc(O)cc8CC[C@@H]7c7ccccc7)cc6)CC5)CC4)ccc3C2=O)C(=O)N1` is reported as 2.3 nM (cell growth, CellTiter-Glo; 120 h).
For `COc1cccc(CNC[C@@](O)(COCc2ccccc2)[C@@H]2CC[C@@H](C)C[C@H]2OCc2ccccc2)c1`, the inhibition was 72.1% (cell growth or viability, MTT; 10 µM, 72 h).
`CC(=O)[O][Pd][c]1ccccc1N1N=C(C)C(C)(C)C1=O.CC(=O)[O][Pd][c]1ccccc1N1N=C(C)C(C)(C)C1=O` — result for “late apoptotic cells”: 79.1 ± 1.28% (annexin V/PI flow cytometry; 25 µM, 24 h).
`C[C@@H]1CC[C@@H]([C@@](O)(CNCc2ccc(F)cc2)COCc2ccc(F)cc2)[C@H](OCc2ccc(F)cc2)C1` has an inhibition of 99.7% (cell growth or viability, MTT; 30 µM, 72 h).
`COc1ccc(C2CC(=O)c3c(cc(O)c(CC=C(C)C)c3O)O2)cc1` (stereo not shown) gave a growth inhibition of 5.23% (cytotoxicity, MTT; 56.43 µM, 48 h).
The inhibition of `C[C@@H]1CC[C@@H]([C@@](C)(O)Cn2ccnc2)[C@H](OCc2ccccc2)C1` is reported as 56% (cell growth or viability, MTT; 30 µM, 72 h).
For `CCC(=CCc1c(O)cc2c(c1O)C(=O)CC(c1ccc(OC)c(O)c1)O2)CC` (stereo not shown), the growth inhibition was 27.1% (cytotoxicity, MTT; 12.55 µM, 48 h).
`COc1ccccc1CNC[C@](O)(COCc1ccccc1)[C@@H]1CC[C@@H](C)C[C@H]1OCc1ccccc1` has an inhibition of 84.5% (cell growth or viability, MTT; 30 µM, 72 h).
`CC(=S)NCCCC[C@H](NC(=O)OCc1ccccc1)C(=O)N[C@@H](Cc1c[nH]c2ccccc12)C(=O)NC(C)C` gave an EC50 of 62800 to 69000 nM (cell growth or viability, MTT; 72 h).
